Measurements of several laboratories.
Compare with care: the assays were run in different laboratories. ± gives the spread as reported.
Proteasome component C5/PSMB8: Proteasome component C5/PSMB8 (Homo sapiens, UniProt P20618+P28062)
Chain of UniProt P20618 (whole entry, looked up): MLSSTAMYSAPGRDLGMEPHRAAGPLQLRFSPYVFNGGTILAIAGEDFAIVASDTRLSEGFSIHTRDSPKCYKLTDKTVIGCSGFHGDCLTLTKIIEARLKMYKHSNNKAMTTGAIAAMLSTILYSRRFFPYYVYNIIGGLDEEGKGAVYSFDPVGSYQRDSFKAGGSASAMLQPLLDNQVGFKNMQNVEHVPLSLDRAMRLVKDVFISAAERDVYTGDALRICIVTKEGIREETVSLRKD
Chain of UniProt P28062 (whole entry, looked up): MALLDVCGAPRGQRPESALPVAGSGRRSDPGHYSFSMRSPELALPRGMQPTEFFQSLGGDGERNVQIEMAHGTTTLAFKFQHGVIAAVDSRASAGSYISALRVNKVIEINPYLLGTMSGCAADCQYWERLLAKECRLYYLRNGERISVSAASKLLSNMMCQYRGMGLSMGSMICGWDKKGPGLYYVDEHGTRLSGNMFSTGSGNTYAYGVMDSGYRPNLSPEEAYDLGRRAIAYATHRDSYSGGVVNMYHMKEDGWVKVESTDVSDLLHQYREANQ
GLO1: Lactoylglutathione lyase (GLO1, Homo sapiens, UniProt Q04760)
Chain of UniProt Q04760 (whole entry, looked up): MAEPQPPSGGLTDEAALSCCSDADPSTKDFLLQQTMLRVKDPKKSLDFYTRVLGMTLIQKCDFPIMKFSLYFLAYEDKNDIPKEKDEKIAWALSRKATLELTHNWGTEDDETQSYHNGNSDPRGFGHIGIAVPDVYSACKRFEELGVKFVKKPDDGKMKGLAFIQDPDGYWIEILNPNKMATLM
PDE4D: 3',5'-cyclic-AMP phosphodiesterase 4D (PDE4D, Homo sapiens, UniProt Q08499)
Chain of UniProt Q08499 (whole entry, looked up): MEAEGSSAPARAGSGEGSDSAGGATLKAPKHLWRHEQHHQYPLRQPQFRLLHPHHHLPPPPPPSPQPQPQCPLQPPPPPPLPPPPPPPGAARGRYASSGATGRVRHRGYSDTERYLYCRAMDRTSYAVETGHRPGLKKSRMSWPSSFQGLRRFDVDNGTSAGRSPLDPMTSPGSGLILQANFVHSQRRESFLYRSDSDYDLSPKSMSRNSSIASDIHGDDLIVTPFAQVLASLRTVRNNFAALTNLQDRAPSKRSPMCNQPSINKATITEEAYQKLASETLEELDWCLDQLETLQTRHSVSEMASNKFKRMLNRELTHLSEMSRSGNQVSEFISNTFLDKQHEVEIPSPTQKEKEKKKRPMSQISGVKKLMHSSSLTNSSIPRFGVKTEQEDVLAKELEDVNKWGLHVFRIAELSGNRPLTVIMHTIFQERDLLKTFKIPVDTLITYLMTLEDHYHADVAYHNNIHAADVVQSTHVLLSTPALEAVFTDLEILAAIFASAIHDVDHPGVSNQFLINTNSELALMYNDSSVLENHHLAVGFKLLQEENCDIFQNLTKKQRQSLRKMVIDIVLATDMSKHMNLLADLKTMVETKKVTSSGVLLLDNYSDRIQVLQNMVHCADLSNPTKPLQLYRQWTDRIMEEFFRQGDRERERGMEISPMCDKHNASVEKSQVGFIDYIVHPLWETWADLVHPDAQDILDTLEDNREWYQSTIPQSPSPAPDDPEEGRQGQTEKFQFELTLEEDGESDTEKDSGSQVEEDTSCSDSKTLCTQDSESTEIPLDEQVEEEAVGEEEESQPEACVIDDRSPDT
SLC7A5: Large neutral amino acids transporter small subunit 1 (SLC7A5, Homo sapiens, UniProt Q01650)
Chain of UniProt Q01650 (whole entry, looked up): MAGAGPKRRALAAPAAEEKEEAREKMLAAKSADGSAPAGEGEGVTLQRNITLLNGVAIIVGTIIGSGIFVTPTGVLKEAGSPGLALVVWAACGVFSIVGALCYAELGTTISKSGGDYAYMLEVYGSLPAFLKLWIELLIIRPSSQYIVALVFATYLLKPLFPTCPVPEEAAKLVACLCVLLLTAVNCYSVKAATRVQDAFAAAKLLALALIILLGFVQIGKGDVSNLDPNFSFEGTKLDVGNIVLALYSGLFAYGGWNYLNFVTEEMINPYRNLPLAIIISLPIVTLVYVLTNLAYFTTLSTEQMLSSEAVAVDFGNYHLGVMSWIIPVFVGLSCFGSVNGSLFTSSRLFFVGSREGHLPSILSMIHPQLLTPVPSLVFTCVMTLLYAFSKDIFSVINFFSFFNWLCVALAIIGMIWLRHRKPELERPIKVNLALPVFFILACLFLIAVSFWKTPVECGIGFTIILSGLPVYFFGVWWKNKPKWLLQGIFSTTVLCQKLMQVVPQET
Chain of UniProt D0VWV4 (whole entry, looked up): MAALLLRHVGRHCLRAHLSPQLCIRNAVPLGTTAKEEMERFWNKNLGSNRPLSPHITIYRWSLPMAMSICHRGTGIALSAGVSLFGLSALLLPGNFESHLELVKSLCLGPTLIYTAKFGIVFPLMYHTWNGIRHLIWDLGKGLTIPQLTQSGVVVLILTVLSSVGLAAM
Chain of UniProt Q9NXA8 (whole entry, looked up): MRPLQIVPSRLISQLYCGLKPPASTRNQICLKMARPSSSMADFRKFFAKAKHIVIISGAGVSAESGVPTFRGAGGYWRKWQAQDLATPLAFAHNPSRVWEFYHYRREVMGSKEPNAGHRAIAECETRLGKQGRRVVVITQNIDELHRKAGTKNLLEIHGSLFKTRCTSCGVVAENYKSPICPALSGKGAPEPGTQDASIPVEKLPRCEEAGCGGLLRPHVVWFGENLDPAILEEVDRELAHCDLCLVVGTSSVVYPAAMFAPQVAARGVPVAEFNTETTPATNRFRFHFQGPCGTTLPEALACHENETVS
Chain of UniProt P51451 (whole entry, looked up): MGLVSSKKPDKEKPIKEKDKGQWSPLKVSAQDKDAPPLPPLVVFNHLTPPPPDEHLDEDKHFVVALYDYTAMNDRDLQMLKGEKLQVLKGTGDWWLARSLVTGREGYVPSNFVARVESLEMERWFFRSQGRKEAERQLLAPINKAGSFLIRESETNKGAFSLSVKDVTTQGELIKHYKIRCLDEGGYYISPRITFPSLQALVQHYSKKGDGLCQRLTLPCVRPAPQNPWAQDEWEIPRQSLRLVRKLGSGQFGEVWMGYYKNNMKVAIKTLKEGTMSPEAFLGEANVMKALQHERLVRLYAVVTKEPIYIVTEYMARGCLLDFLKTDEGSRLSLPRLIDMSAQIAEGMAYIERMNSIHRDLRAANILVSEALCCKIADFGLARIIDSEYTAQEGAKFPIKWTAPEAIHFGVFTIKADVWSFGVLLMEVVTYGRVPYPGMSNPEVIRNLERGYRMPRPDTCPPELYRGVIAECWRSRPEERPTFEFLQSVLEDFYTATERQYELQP
Chain of UniProt Q12888 (whole entry, looked up): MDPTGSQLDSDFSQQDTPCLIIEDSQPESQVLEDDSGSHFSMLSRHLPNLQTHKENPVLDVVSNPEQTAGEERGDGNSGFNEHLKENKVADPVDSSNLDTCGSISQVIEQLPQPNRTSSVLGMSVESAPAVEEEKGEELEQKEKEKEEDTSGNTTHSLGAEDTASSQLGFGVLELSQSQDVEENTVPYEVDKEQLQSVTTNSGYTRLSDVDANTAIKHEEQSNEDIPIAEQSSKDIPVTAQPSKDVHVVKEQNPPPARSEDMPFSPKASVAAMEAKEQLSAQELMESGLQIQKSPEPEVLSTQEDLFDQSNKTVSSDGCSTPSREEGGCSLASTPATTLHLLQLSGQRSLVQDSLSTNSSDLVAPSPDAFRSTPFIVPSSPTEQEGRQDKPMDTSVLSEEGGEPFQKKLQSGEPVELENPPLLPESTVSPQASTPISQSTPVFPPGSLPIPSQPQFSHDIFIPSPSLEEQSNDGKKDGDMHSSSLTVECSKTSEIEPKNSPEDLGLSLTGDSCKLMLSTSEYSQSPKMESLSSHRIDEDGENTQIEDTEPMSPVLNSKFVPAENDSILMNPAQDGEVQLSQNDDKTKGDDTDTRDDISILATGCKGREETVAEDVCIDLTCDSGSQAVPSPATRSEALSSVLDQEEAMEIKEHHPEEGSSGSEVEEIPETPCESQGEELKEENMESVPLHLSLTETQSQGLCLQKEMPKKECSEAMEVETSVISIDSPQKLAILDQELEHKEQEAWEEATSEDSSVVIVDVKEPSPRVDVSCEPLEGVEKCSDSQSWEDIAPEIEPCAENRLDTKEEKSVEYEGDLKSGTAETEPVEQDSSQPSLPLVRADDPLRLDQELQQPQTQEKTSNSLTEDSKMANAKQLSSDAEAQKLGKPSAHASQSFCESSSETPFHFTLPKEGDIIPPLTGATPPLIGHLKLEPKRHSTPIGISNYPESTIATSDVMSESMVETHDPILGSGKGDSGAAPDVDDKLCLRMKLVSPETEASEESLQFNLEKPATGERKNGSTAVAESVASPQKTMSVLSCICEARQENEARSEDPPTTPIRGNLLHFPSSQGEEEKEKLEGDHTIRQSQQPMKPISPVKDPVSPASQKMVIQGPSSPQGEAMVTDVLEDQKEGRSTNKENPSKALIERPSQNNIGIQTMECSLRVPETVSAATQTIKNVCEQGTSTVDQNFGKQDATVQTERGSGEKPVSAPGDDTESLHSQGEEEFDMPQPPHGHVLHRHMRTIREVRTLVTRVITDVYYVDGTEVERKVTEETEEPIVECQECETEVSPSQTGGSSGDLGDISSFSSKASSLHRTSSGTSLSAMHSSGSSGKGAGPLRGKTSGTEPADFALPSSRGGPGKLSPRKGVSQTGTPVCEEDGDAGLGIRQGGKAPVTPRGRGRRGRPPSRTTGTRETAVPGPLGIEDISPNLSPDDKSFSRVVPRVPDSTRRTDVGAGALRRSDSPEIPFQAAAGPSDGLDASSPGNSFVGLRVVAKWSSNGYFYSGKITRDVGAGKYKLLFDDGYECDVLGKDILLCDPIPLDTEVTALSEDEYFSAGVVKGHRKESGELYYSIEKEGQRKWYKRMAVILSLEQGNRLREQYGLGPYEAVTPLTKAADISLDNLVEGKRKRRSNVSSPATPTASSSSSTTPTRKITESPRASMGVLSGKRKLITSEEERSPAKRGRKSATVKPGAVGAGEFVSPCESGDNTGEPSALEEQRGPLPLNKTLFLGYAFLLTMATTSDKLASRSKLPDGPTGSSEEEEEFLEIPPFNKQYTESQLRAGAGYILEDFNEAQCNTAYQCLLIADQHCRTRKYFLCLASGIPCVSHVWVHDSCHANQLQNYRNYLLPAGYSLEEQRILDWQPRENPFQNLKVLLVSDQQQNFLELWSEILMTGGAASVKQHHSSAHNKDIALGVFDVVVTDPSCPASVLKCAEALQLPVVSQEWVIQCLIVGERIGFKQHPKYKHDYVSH

For `C/C=C1\NC(=O)[C@H](C)NC(=O)[C@@H](NC(=O)[C@@H](Cc2ccc(O)cc2)NC(=O)[C@@H](NC(=O)/C(C)=C/C)C(C)C)[C@@H](C)OC(=O)[C@H](CC(C)C)NC(=O)[C@@H](CCC(=O)O)NC1=O`, the IC50 was 1.41 ± 0.28 µM (CELA1 (Sus scrofa, UniProt P00772); inhibitor).
The IC50 of `C=CCNC(=O)[C@H](CCc1ccccc1)NC(=O)[C@H](CC(=O)NCC(C)(C)C)NC(=O)CCc1ccccc1` is reported as 0.044 µM (Proteasome component C5/PSMB8; inhibitor).
The IC50 of `NS(=O)(=O)c1ccc(/N=N/c2cc3ccccc3c(C(=O)O)c2O)cc1` is reported as 37.4 µM (GLO1; enzyme activity, inhibitor).
For `Cc1cc(C)cc(CSc2nc3cc(Cl)ccc3c(=O)n2CCSCCN)c1`, the IC50 was 11 µM (Protein RecA (recA, Escherichia coli, UniProt P0A7G6); ATPase activity, inhibitor, phosphomolybdate blue; with: poly(dT) ssDNA).
`C=CC(=O)N1CCc2ccc(-n3c(=O)ccc4cnc5ccc(-c6cnn(C)c6)cc5c43)cc21` gave an IC50 of over 10 µM (PDGFRA (Homo sapiens, UniProt P16234); enzyme activity, inhibitor).
`Cc1cc(N2CC[C@@](C#N)(C3(C)CC3)C2=O)cc(C(=O)NCc2cc(F)cc(-c3cnn(C)c3)c2)n1` gave an IC50 of over 10 µM (PDE4D; enzyme activity, inhibitor).
The IC50 of `Nc1ncnc2c1c(-c1ccc(Oc3ccccc3)cc1)nn2C1CCCN(C(=O)C2CC(Br)=NO2)C1` (mixture of isomers) is reported as 0.0069 µM (BLK (Homo sapiens, UniProt P51451); enzyme activity, inhibitor).
`N[C@@H](Cc1c[nH]c2ccc(OCc3ccccc3-c3ccsc3)cc12)C(=O)O` gave an IC50 of 5.5 µM (SLC7A5; transporter uptake, inhibitor, radiometric).
The IC50 of `CC[C@H](C)[C@H](NC(=O)[C@H](CCCNC(=N)N)NC(=O)[C@H](CC(N)=O)NC(=O)[C@H](C)NC(=O)[C@H](Cc1c[nH]cn1)NC(=O)[C@@H](NC(=O)[C@H](CCC(N)=O)NC(=O)[C@@H]1CCCN1C(=O)[C@@H](N)CC(=O)O)[C@@H](C)O)C(=O)N[C@@H](Cc1ccc(O)cc1)C(=O)N[C@@H](CCCNC(=N)N)C(=O)N[C@@]1(C)CCCC=CCCC[C@@](C)(C(=O)N[C@@H](CC(C)C)C(=O)NCC(=O)O)NC(=O)[C@H](CC(C)C)NC(=O)[C@H](CCCCN)NC(=O)[C@H]([C@@H](C)CC)NC1=O` is reported as 37.9 ± 4 µM (Hsp90; luciferase refolding, inhibitor; rabbit reticulocyte lysate; with: heat-denatured luciferase).
The IC50 of `C=C(NC(=O)C(=C)NC(=O)c1csc(C2=NC3c4csc(n4)C4NC(=O)c5csc(n5)C(C(C)(O)C(C)O)NC(=O)C5CSC(=N5)C(=CC)NC(=O)C(C(C)O)NC(=O)c5csc(n5)C3(CC2)NC(=O)C(CC(C)C)NC(=O)C(=C)NC(=O)C(C)NC(=O)C(C(C)CC)NC2C=Cc3c(C(C)O)cc(nc3C2O)C(=O)OC4C)n1)C(N)=O` (stereo not shown) is reported as 0.53 ± 0.02 µM (PSMB5 (Homo sapiens, UniProt P28074); chymotrypsin-like activity, inhibitor; purified 20S proteasome; 15 min preincubation, 37 °C, with: Suc-Leu-Leu-Val-Tyr-AMC substrate).
For `Oc1ccc(C#Cc2c(O)ccc3c2C(c2ccc(O)cc2)(c2ccc(O)cc2)c2cc(O)ccc2-3)cc1`, the IC50 was 0.19 µM (PDE4D; enzyme activity, inhibitor, fluorescence).
The IC50 of `Cc1cc(C)nc(SCC(=O)Nc2ncc(Cc3cccc(OCc4cn(-c5ccc(Cl)cc5)nn4)c3)s2)n1` is reported as 0.11 µM (SIRT2 (Homo sapiens, UniProt Q8IXJ6); enzyme activity, inhibitor, fluorescence).
With `C=CC(C)(C)c1cc(/C=C/C(=O)c2ccc(O)cc2)c(OC)cc1O` the IC50 was 7.96 µM (Prothrombin (F2, Homo sapiens, UniProt P00734); enzyme activity, inhibitor, fluorescence; with preincubation).
`C/C(=N\NC(N)=S)c1c(O)c2ccccc2oc1=O` has an IC50 of 1.39 µM (MTOR (Homo sapiens, UniProt P42345); enzyme activity, inhibitor).
The IC50 of `C[C@H](CCC(=O)N(C)CC(=O)O)[C@H]1CC[C@H]2[C@@H]3CC[C@@H]4C[C@H](O)CC[C@]4(C)[C@H]3C[C@H](O)[C@]12C` is reported as over 100 µM (SHMT2 (Homo sapiens, UniProt P34897); serine to glycine conversion, inhibitor; pH 7.5, 1% DMSO, with: L-serine 1 mM, THF 0.2 mM).
`CC(C)[C@@H]1NC(=O)[C@@H](NC(=O)[C@@H](N)Cc2c[nH]c3ccccc23)CSSC[C@@H](C(=O)N[C@@H](Cc2c[nH]c3ccccc23)C(N)=O)NC(=O)[C@H](CCCNC(=N)N)NC(=O)[C@H](CC(N)=O)NC(=O)[C@H]([C@@H](C)O)NC(=O)CNC(=O)[C@H](Cc2c[nH]c3ccccc23)NC(=O)[C@H](CC(=O)O)NC(=O)[C@H](CCC(N)=O)NC(=O)[C@H](Cc2c[nH]c3ccccc23)NC1=O` gave an IC50 of 0.94 µM (Complement C3 (Homo sapiens, UniProt P01024); C3b formation, ELISA; normal human serum; with: LPS-coated plate).
For `COCc1nc(C(F)(F)F)[nH]c1-c1cc(C(=O)N2CC(c3ccc(C#N)cc3)C2)c(C)cc1C`, the IC50 was 0.009 µM (Fatty acid synthase (FASN, Homo sapiens, UniProt P49327); palmitate synthesis, inhibitor; human cells).
With `CCCCCCc1ccc(S(=O)(=O)N2CC2C(=O)NC)cc1` (stereo not shown) the IC50 was 34.6 µM (PDIA3 (Homo sapiens, UniProt P30101); enzyme activity, inhibitor, absorbance; pH 7.6).
With `N[C@@H](Cc1c[nH]c2ccc(OCc3cccc(-c4cccs4)c3)cc12)C(=O)O` the IC50 was 13 µM (SLC7A5; transporter uptake, inhibitor, radiometric).
With `Cn1c(=O)c(=O)n(C)c2cc(S(=O)(=O)NNC(=S)Nc3ccccc3)ccc21` the IC50 was over 100 µM (DPP9 (Homo sapiens, UniProt Q86TI2); enzyme activity, inhibitor, fluorescence).
With `NS(=O)(=O)c1ccc(/N=N/c2c(O)ccc3ccccc23)cc1` the IC50 was 5.3 µM (GLO1; enzyme activity, inhibitor).
`COc1cc(-c2nc3ccc(C(=O)NCCCN4CCN(c5cccc(C)c5C)CC4)cc3n2C2CCC2)cc(OC)c1OC` has an IC50 of 11.6 µM (ACVRL1 (Homo sapiens, UniProt P37023); target engagement in cells, BRET).
`Cc1ccc(CNC(=O)C(CCc2ccccc2)NC(=O)C(NC(=O)Cc2cccc(Oc3ccccc3)c2)C(C)O)cc1` (stereo not shown) gave an IC50 of 0.041 µM (Proteasome component C5/PSMB8; inhibitor).
The IC50 of `Cc1cc(CN2CCN(c3c(Br)cnc4nc(-c5ccc(N6CCN(C)CC6)cc5)[nH]c34)CC2)no1` is reported as 0.0025 µM (FLT3 (Homo sapiens, UniProt P36888); enzyme activity, inhibitor).
For `N=C(N)NCCCC(N)C(=O)NCC(=O)NC(CCCCNC(=N)NCCSCC1OC(n2cnc3c(N)ncnc32)C(O)C1O)C(N)=O` (stereo not shown), the IC50 was over 100 µM (N-terminal Xaa-Pro-Lys N-methyltransferase 1 (Homo sapiens, UniProt Q9BV86); enzyme activity, inhibitor, fluorescence).
`CC(C)=CCC[C@](C)(O)[C@H]1CC[C@]2(C)[C@@H]1[C@H](O)C[C@@H]1[C@@]3(C)CC[C@H](O)C(C)(C)[C@@H]3CC[C@]12C` has an IC50 of 12.5 ± 1.22 µM (alpha-glucosidase (yeast); enzyme activity; with: pNPG).
`O=C(Nc1ccc(C(=O)Nc2ccc(C(=O)Nc3ccc(S(=O)(=O)O)c4cc(S(=O)(=O)O)cc(S(=O)(=O)O)c34)cc2)cc1)Nc1ccc(C(=O)Nc2ccc(C(=O)Nc3ccc(S(=O)(=O)O)c4cc(S(=O)(=O)O)cc(S(=O)(=O)O)c34)cc2)cc1` has an IC50 of 0.22 µM (Neutrophil elastase (ELANE, Homo sapiens, UniProt P08246); enzyme activity, inhibitor, absorbance; pH 7.4).
For `O=C(Nc1ccccc1Nc1ccccc1)c1cccnc1F`, the IC50 was over 100 µM (Succinate dehydrogenase complex (Sus scrofa, UniProt A5GZW8+D0VWV4+Q007T0+Q0QF01); enzyme activity, inhibitor, double-antibody sandwich ELISA).
With `COc1cc(C(=O)O[C@@H]2Cc3c(O)cc(O)cc3O[C@@H]2c2ccc(O)c(O)c2)cc(O)c1O` the IC50 was 60.3 µM (maltase, rat; enzyme activity, inhibitor; rat intestinal brush border vesicles).
The IC50 of `COC(=O)C(CS)N1C(=O)c2cccc3c(N(C)C)ccc(c23)C1=O` (stereo not shown) is reported as 9.5 µM (blaNDM-1 (Klebsiella pneumoniae, UniProt C7C422); enzyme activity, inhibitor; pH 7).
With `[N-]=[N+]=NCCNC(=O)c1ccc(S[C@@H]2O[C@H](CO)[C@H](O)[C@H](O)[C@H]2O)cc1` the IC50 was 50.3 µM (lecA (Pseudomonas aeruginosa, UniProt Q05097); ligand displacement, FP).
For `C[C@]12CC[C@@H]3c4ccc(OCc5ccccc5)cc4CC[C@H]3[C@@H]1[C@H](OCCC(N)=O)CC2=O`, the IC50 was 0.78 to 1.5 µM (HSD17B1 (Homo sapiens, UniProt P14061); enzyme activity, inhibitor, radiometric).
The IC50 of `CCOc1cncc(-c2ccc(NC(=O)C(CC)c3ccnc(NS(=O)(=O)C4CC4)n3)nc2)n1` (stereo not shown) is reported as 0.421 µM (Ctps1 (Mus musculus, UniProt P70698, I250T); cell growth; CTPS-null Jurkat expressing Ctps1; 3 d).
The IC50 of `CC(C)(C)NCCCNC(=O)c1ccnc(Br)c1` is reported as over 100 µM (TP53-binding protein 1 (Homo sapiens, UniProt Q12888); methyl-lysine reader binding, inhibitor, AlphaScreen).
For `COc1cc2ncnc(Nc3ccc(Oc4ccccc4)c(C)c3C)c2cc1OC`, the IC50 was over 10 µM (Dual specificity mitogen-activated protein kinase kinase 1, phosphorylated (MAP2K1, Homo sapiens, UniProt Q02750); ATP-biotin probe binding, inhibitor, probe-labelling competition; active MEK1).
With `O=C(Nc1ccccc1)Oc1ccc2c(c1)CCCN2C(=O)CCl` the IC50 was 0.7 µM (AKR1B10 (Homo sapiens, UniProt O60218); enzyme activity, inhibitor).
The IC50 of `CC(C)C[C@H](NC(=O)[C@H](CC(N)=O)NC(=O)[C@H](CC(C)C)NC(=O)[C@@H](NC(=O)[C@@H](NC(=O)[C@@H]1CCCN1C(=O)[C@H](CCCNC(=N)N)NC(=O)[C@H](CCCCN)NC(=O)[C@@H]1CCCN1C(=O)[C@H](CCCNC(=N)N)NC(=O)[C@@H]1CCCN1C(=O)[C@@H]1CCCN1C(=O)[C@H](CCCNC(=N)N)NC(=O)[C@H](CCCNC(=N)N)NC(=O)[C@H](CCCNC(=N)N)NC(=O)[C@H](CCC(N)=O)NC(=O)[C@H](CCCNC(=N)N)NC(=O)[C@H](CCCNC(=N)N)NC(=O)[C@H](CCCCN)NC(=O)[C@H](CCCCN)NC(=O)[C@H](CCCNC(=N)N)NC(=O)CN)[C@@H](C)O)[C@@H](C)O)C(=O)N[C@@H](Cc1ccccc1)C(=O)N1CCC[C@H]1C(=O)N[C@@H](CCC(N)=O)C(=O)N[C@H](C(=O)N1CCC[C@H]1C(=O)N[C@@H](CCCNC(=N)N)C(=O)N[C@@H](CO)C(=O)N[C@@H](CCC(N)=O)C(=O)N[C@@H](CC(=O)O)C(=O)N[C@H](C(N)=O)[C@@H](C)O)C(C)C` is reported as 0.45 ± 0.04 µM (MAPK9 (Homo sapiens, UniProt P45984); enzyme activity, inhibitor).
With `O=C(O)CCCC(=S)NCCCC[C@H](NC(=O)OCc1ccccc1)C(=O)Nc1ccccc1` the IC50 was 43 µM (SIRT5 (Homo sapiens, UniProt Q9NXA8); desuccinylase activity, inhibitor; with: succinyl-H3K9 peptide).
For `CN(C)C/C=C/C(=O)Nc1ccc2nc(NCCCCCN(C)C)nc(NCCCCCCN(C)C)c2c1`, the IC50 was 1.3 µM (PRMT1 (Homo sapiens, UniProt Q99873); enzyme activity, inhibitor, radiometric).
`OC[C@H]1[C@@H](O)[C@@H](O)CN1Cc1ccc(Br)cc1` has an IC50 of 55 µM (Golgi alpha-mannosidase IIb (Drosophila melanogaster, UniProt Q9VF33); inhibitor; with: p-nitrophenyl mannoside).

Excerpt of the above:
With `CCCCCCc1ccc(S(=O)(=O)N2CC2C(=O)NC)cc1` (stereo not shown) the IC50 was 34.6 µM (PDIA3 (Homo sapiens, UniProt P30101); enzyme activity, inhibitor, absorbance; pH 7.6).
`C/C(=N\NC(N)=S)c1c(O)c2ccccc2oc1=O` has an IC50 of 1.39 µM (MTOR (Homo sapiens, UniProt P42345); enzyme activity, inhibitor).
With `Cn1c(=O)c(=O)n(C)c2cc(S(=O)(=O)NNC(=S)Nc3ccccc3)ccc21` the IC50 was over 100 µM (DPP9 (Homo sapiens, UniProt Q86TI2); enzyme activity, inhibitor, fluorescence).
For `COCc1nc(C(F)(F)F)[nH]c1-c1cc(C(=O)N2CC(c3ccc(C#N)cc3)C2)c(C)cc1C`, the IC50 was 0.009 µM (Fatty acid synthase (FASN, Homo sapiens, UniProt P49327); palmitate synthesis, inhibitor; human cells).
For `O=C(Nc1ccccc1Nc1ccccc1)c1cccnc1F`, the IC50 was over 100 µM (Succinate dehydrogenase complex (Sus scrofa, UniProt A5GZW8+D0VWV4+Q007T0+Q0QF01); enzyme activity, inhibitor, double-antibody sandwich ELISA).
The IC50 of `CCOc1cncc(-c2ccc(NC(=O)C(CC)c3ccnc(NS(=O)(=O)C4CC4)n3)nc2)n1` (stereo not shown) is reported as 0.421 µM (Ctps1 (Mus musculus, UniProt P70698, I250T); cell growth; CTPS-null Jurkat expressing Ctps1; 3 d).
The IC50 of `Nc1ncnc2c1c(-c1ccc(Oc3ccccc3)cc1)nn2C1CCCN(C(=O)C2CC(Br)=NO2)C1` (mixture of isomers) is reported as 0.0069 µM (BLK (Homo sapiens, UniProt P51451); enzyme activity, inhibitor).
